Experimental data of several laboratories.
± gives the spread as reported.
Method: steady-state kinetics
B1: enzyme S252E (Schizosaccharomyces pombe, UniProt P78804); chain MSTPYEPEFQQAYKEIVGSIESSKLFEVHPELKRVLPIISIPERVLEFRVTWEDDKGNCRVNTGYRVQFNSALGPYKGGLRFHPSVNLSILKFLGFEQIFKNALTGLPMGGGKGGSDFDPKGKSDNEIRRFSQAFMRQLFRYIGPQTDVPAGDIGVTGFVVMHMFGEYKRLRNEYSGVVTGKHMLTGGSNIRPEATGYGVVYYVKHMIEHRTKGAETLKGKRVAISGSGNVAQYAALKCIQEGAIVKSISDEKGVLIAKTAEGLVPEEIHEIMALKEKRASIADSASLCKKHHYIAGARPWTNVGEIDIALPCATQNEVSGEEAAALIKQGCRYVAEGSNMGSSAEAVEVFEKSRASGEGCWLAPGKAANAGGVAVSGLEMAQNAQFSTWTHAEVDAKLAGIMQNIFEQSTDVASKYCDSGSNNIPSLVDGANIAGFLKVATAMQAVGDWW
B2: CYP4F3 A27G/C46R/I34V/M14V/R49Q/W12G (Homo sapiens, UniProt Q08477); chain MALLLAVFLLGPVAASPWLLLLLVGGSWLLARVLAWTYTFYDNCRRLQCFPQPPKRNWFLGHLGLIHSSEEGLLYTQSLACTFGDMCCWWVGPWHAIVRIFHPTYIKPVLFAPAAIVPKDKVFYSFLKPWLGDGLLLSAGEKWSRHRRMLTPAFHFNILKPYMKIFNESVNIMHAKWQLLASEGSARLDMFEHISLMTLDSLQKCVFSFDSHCQEKPSEYIAAILELSALVTKRHQQILLYIDFLYYLTPDGQRFRRACRLVHDFTDAVIQERRRTLPSQGVDDFLQAKAKSKTLDFIDVLLLSKDEDGKKLSDEDIRAEADTFMFEGHDTTASGLSWVLYHLAKHPEYQERCRQEVQELLKDREPKEIEWDDLAQLPFLTMCIKESLRLHPPVPAVSRCCTQDIVLPDGRVIPKGIICLISVFGTHHNPAVWPDPEVYDPFRFDPKNIKERSPLAFIPFSAGPRNCIGQAFAMAEMKVVLGLTLLRFRVLPDHTEPRRKPELVLRAEGGLWLRVEPLS
B3: efeB (Bacillus subtilis, UniProt P39597); chain IGASGLGGLAPLVQTAAKPSKKDEKEEEQIVPFYGKHQAGITTAHQTYVYFAALDVTAKDKSDIITLFRNWTSLTQMLTSGKKMSAEQRNQYLPPQDTGESADLSPSNLTVTFGFGPGFFEKDGKDRFGLKSKKPKHLAALPAMPNDNLDEKQGGGDICIQVCADDEQVAFHALRNLLNQAVGTCEVRFVNKGFLSGGKNGETPRNLFGFKDGTGNQSTKDDTLMNSIVWIQSGEPDWMTGGTYMAFRKIKMFLEVWDRSSLKDQEDTFGRRKSSGAPFGQKKETDPVKLNQIPSNSHVSLAKSTGKQILRRAFSYTEGLDPKTGYMDAGLLFISFQKNPDNQFIPMLKALSAKDALNEYTQTIGSALYACPGGCKKGEYIAQRLLES
B4: acmB (Sterolibacterium denitrificans, UniProt A9XWD7); chain MSIETNTYDVIVVGSGAGAMLAAARAHDLGLSVLVVEKSDKYGGTSAVSGGAVWIPNNSQMQIKDSFDEALTYLKAATQGLVAEDRLLAYLESAPQMVEYINANMTLQYFPCHRYPDYYQHLPGAKPGGRTMEPMLFDAALLGDEFANLRMAYTGTLLMGKASMTATEAHVMLAKEPGWMLQVIKSLGRYYLDLPWRLKSRHDRKRGLGNAMAAGLRHALLERKVPLWLNTPFESLITEGAENKRVTGIVVKRNGQTLQLTARRGVVLGAGGFERNQQMREQYLPKPTNAAWSATPPHNTGDTIRAAMDIGARAELMDWAWWVPSIHVPGEAAQTGLFAERNLPGCIVVNGKGQRFINEASPYLEFGAAMYENHARSGSAVPAWLIFDGKFRYNYPMGPLMPGQIQPDRKAWLGKVYWRDDTLEGLAKQIGVDAAGLKQSVELNNQYAQDGKDREFDKGGNVFDRYYGDYNVKPNPCLAPIGKPPYYAMRVDAGDIGTKGGLLTDKDARVLDESDRPIEGLYCIGNNSASVMGKAYPGAGGTLGPAMTFGFRAANHIAASK
B5: nudC (Escherichia coli, UniProt P32664); chain MDRIIEKLDHGWWVVSHEQKLWLPKGELPYGEAANFDLVGQRALQIGEWQGEPVWLVQQQRRHDMGSVRQVIDLDVGLFQLAGRGVQLAEFYRSHKYCGYCGHEMYPSKTEWAMLCSHCRERYYPQIAPCIIVAIRRDDSILLAQHTRHRNGVHTVLAGFVEVGETLEQAVAREVMEESGIKVKNLRYVTSQPWPFPQSLMTAFMAEYDSGDIVIDPKELLEANWYRYDDLPLLPPPGTVARRLIEDTVAMCRAEYE
B6: gdhA W89F (Thermococcus profundus, UniProt O74024); chain MVEIDPFEMAVKQLERAAQYMDISEEALEWLKKPMRIVEVSVPIEMDDGSVKVFTGFRVQHNWARGPTKGGIRWHPAETLSTVKALATFMTWKVAVVDLPYGGGKGGIIVNPKELSEREQERLARAYIRAVYDVIGPWTDIPAPDVYTNPKIMGWMMDEYETIMRRKGPAFGVITGKPLSIGGSLGRGTATAQGAIFTIREAAKALGIDLKGKKIAVQGYGNAGYYTAKLAKEQLGMTVVAVSDSRGGIYNPDGLDPDEVLKWKREHGSVKDFPGATNITNEELLELEVDVLAPAAIEEVITEKNADNIKAKIVAEVANGPVTPEADDILREKGILQIPDFLCNAGGVTVSYFEWVQNINGYYWTEEEVREKLDKKMTKAFWEVYNTHKDKNIHMRDAAYVVAVSRVYQAMKDRGWVKK
B7: SCO6712 (Streptomyces coelicolor, UniProt Q9XAL8); chain AKGITARTAPAGGEVRHLKMYAEKLADGQMGYGFEKGKASVPGPLIEVNEGDTLHIEFTNTMDVRASLHVHGLDYEISSDGTAMNKSDVEPGGTRTYTWRTHKPGRRDDGTWRPGSAGYWHYHDHVVGTEHGTGGIRNGLYGPVIVRRKGDVLPDATHTIVFNDMTINNRKPHTGPDFEATVGDRVEIVMITHGEYYHTFHMHGHRWADNRTGILTGPDDPSRVIDNKITGPADSFGFQIIAGEGVGAGAWMYHCHVQSHSDMGMVGLFLVKKPDGTIPGYEPHEHGGATAKSGESGEPTGGAAAHEHEH
B8: enzyme D25A (Nitrosopumilus maritimus, UniProt A9A5X4); chain MDSQKFDSIIFDCDGVLVDITQSYAKTIDKTCRYVLKEFAKIDSITIDHKIIDGFKSSGGFNDEVDLVYAAILSLYTANKLNKKPSEFIYDVISNTDKTGIRSVQSYLESIYDVSEFLSKLGSLGDRHNNPVYSIFDQFFFGPELYGKLFDKQSKFSEEGMISNDKVILSVSLLETLQKEFGKKIAVVTGRGIESIRYSLKDMMDYFDTKNSAFLEDEPRELAKPNPATLIRAIQSMESKNCLYVGDSMEDYMMAKDAAQAGHSTTFCAIVGTSTNPEDRRKLFADSGVEMILESINDIPKVLNLV
B9: PYCR2 R119C (Homo sapiens, UniProt Q96C36); chain MSVGFIGAGQLAYALARGFTAAGILSAHKIIASSPEMNLPTVSALRKMGVNLTRSNKETVKHSDVLFLAVKPHIIPFILDEIGADVQARHIVVSCAAGVTISSVEKKLMAFQPAPKVICCMTNTPVVVQEGATVYATGTHALVEDGQLLEQLMSSVGFCTEVEEDLIDAVTGLSGSGPAYAFMALDALADGGVKMGLPRRLAIQLGAQALLGAAKMLLDSEQHPCQLKDNVCSPGGATIHALHFLESGGFRSLLINAVEASCIRTRELQSMADQEKISPAALKKTLLDRVKLESPTVSTLTPSSPGKLLTRSLALGGKKD
B10: enzyme W53Y (Thermoplasma volcanium, UniProt Q978S7); chain MAFHGLVKYSDITVEGYPKIQYHGFIGNNRTAMLVAMNGYIDYGCLPNFNSNAVFSSILDKNKGGYFAIFPSDTTDVYVDQYYKEMTNVLVTEFVKNGKIILRLTDFMPDSEYGKISFPEVHRFVESFSEPIDITIDFKPTFNYGQDKPIIEKDQHGFIFTTDKESIGISSEFPLRKNSDRIFGNVKMEPRSSSWIIALYGIHHLFRTTDYKSYLRLQETTDYWRKWASSSSYAGAYHSMVMRSALALKVLFYEPTGLMVAAPTASLPEAIGGERNWDYRFTWIRDTAYVIEALSSIGYKYEATEFLYDMMDMITRDNRIRTIYSIDDSNDLEERIIDYEGYRGSRPVRIGNKAVDQLQIDQYGSIVRAIHSMAKAGGIVNSYLWDFVEQVMAKIEYLWKYPDSSIWEFRTEPKQYVYSKVMSWAAFDSAISMAKDLGLSAPIKQWKSIQDEIKKEVLEKGFDTDTNSFVQYYGSKNIDAALLRLPILGFIPANDEKFLGTLSRIEKELMVDGYLFKRYREDDGLKGDEGSFLMLTFWYIEDLILMKRLKKAREVLESVLEKANHLGLYSEEIDEKSGDFLGNFPQALSHLGVIRVAPKLEEALLKRTSKINS
B11: aspC A106G/A17N/A218G/A278L/A281T/A8Q/D18E/F210I/F212I/F350Y/G15S/G249S/I187A/I279A/I29V/I33V/I341V/I5L/I68L/I71L/L46M/M321L/M380L/N285S/N30D/N64T/S129T/S135A/S273G/S351L/T100S/V125I/V136I/V375I/Y244C (Escherichia coli, UniProt P00509); chain MFENLTAQPADPILSLNELFRADERPGKVDLGVGVYKDETGKTPVMTSVKKAEQYLLENETTKTYLGLDGLPEFGRCTQELLFGKGSALINDKRARTAQSPGGTGGLRVAADFLAKNTSVKRVWISNPTWPNHKAIFNSAGLEVREYAYYDAENHTLDFDALINSLNEAQAGDVVLFHGCCHNPTGADPTLEQWQTLAQLSVEKGWLPLIDIAYQGFGRGLEEDAEGLRAFAAMHKELIVASSCSKNFSLYNERVGACTLVAADSETVDRAFGQMKALARTNYSSPPAHGASVVATILSNDALRAIWEQELTDMRQRIQRLRQLFVNTLQEKGANRDFSFVIKQNGMFSYLGLTKEQVLRLREEFGVYAVASGRINVAGLTPDNMAPLCEAIVAVL
Chain of UniProt P49419 (whole entry, looked up): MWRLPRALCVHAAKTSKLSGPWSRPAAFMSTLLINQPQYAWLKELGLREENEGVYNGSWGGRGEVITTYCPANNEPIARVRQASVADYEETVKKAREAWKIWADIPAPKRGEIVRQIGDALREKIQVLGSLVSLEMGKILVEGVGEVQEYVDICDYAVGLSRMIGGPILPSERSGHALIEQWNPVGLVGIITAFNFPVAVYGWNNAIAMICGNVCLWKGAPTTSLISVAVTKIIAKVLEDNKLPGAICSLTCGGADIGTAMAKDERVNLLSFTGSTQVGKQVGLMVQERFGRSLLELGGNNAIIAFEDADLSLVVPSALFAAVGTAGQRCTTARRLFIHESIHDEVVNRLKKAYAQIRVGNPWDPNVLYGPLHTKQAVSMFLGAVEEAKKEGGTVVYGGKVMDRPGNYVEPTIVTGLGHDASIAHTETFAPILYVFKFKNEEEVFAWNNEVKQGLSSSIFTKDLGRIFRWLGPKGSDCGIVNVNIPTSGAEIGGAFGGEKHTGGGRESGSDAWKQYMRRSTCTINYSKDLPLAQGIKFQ
Chain of UniProt Q9SRM3 (whole entry, looked up): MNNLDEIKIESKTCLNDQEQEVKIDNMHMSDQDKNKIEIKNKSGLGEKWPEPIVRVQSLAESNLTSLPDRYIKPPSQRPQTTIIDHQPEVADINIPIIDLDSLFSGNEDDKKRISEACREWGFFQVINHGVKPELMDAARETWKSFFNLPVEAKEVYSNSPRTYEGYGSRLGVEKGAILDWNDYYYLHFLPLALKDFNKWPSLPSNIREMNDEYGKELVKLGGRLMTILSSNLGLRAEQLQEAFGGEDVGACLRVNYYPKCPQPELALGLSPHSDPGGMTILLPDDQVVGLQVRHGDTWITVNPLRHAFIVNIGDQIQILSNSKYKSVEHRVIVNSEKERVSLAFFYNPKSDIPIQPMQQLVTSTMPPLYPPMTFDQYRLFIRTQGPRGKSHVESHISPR

enzyme (Arabidopsis thaliana, UniProt Q9SRM3) — kcat (CC/C=C\C[C@@H]1C(=O)CC[C@@H]1CC(=O)O; pH 7.5, 20 °C): 0.000261 s⁻¹
enzyme (Streptomyces avermitilis, UniProt Q82IV1) — kcat (CC(C)=CCC/C(C)=C/CC/C(C)=C/CO[P@@](=O)(O)OP(=O)(O)O; pH 7, 30 °C, refolded from inclusion bodies, together with: Mg2+): 2.58e-05 ± 6e-07 s⁻¹
B1 (enzyme S252E) — kcat (NC(=O)c1ccc[n+]([C@@H]2O[C@H](COP(=O)(O)OP(=O)(O)OC[C@H]3O[C@@H](n4cnc5c(N)ncnc54)[C@H](OP(=O)(O)O)[C@@H]3O)[C@@H](O)[C@H]2O)c1; pH 7, 30 °C, apparent): 5.3 ± 0.1 s⁻¹
B2 — kcat (CCCCC/C=C\C[C@@H](O)/C=C/C=C/C=C\[C@@H](O)CCCC(=O)O; pH 7.4): 0.00783 s⁻¹
B3 (efeB) — kcat (CN(C)c1ccc(C(=C2C=CC(=[N+](C)C)C=C2)c2ccccc2)cc1; pH 4, 25 °C, apparent): 1.6 ± 0.2 s⁻¹
B4 (acmB) — kcat (CC(=O)[C@H]1CC[C@H]2[C@@H]3CCC4=CC(=O)CC[C@]4(C)[C@H]3CC[C@]12C; pH 6.5, together with: DCPIP 0.1–0.3 mM): 21.3 s⁻¹
HNL E79H/G176S/H103V/K236M/N104A/T11G (Hevea brasiliensis) — kcat (CC(=O)Oc1ccc([N+](=O)[O-])cc1; pH 7.2, 22 °C): 0.035 ± 0.00283 s⁻¹
enzyme (UniProt A0A6P1VWL4) — kcat (C[C@@H]1O[C@@H](Oc2ccc([N+](=O)[O-])cc2Cl)[C@@H](O)[C@H](O)[C@@H]1O; pH 6.4, 37 °C): 70.7 s⁻¹
enzyme (Coleus scutellarioides, UniProt Q84VU3) — kcat (O=C(/C=C/c1ccc(O)cc1)O[C@H](Cc1ccc(O)c(O)c1)C(=O)O; pH 7.5, 30 °C, not purified): 0.006 s⁻¹
B5 (nudC) — kcat (Nc1ncnc2c1ncn2[C@@H]1O[C@H](COP(=O)(O)OP(=O)(O)OP(=O)(O)OP(=O)(O)OP(=O)(O)OC[C@H]2O[C@@H](n3cnc4c(N)ncnc43)[C@H](O)[C@@H]2O)[C@@H](O)[C@H]1O; together with: Mg2+): 0.014 ± 0.005 s⁻¹
acsA L233M (Pseudomonas chlororaphis) — kcat (O=C(O)CCC(F)(F)F; pH 7): 0.123 ± 0.00167 s⁻¹
B6 (gdhA W89F) — kcat (NC(=O)c1ccc[n+]([C@@H]2O[C@H](COP(=O)(O)OP(=O)(O)OC[C@H]3O[C@@H](n4cnc5c(N)ncnc54)[C@H](OP(=O)(O)O)[C@@H]3O)[C@@H](O)[C@H]2O)c1; pH 7.5, 20 °C, per site): 0.0733 ± 0.0003 s⁻¹
B7 (SCO6712) — kcat (CCn1c(=NN=c2sc3cc(S(=O)(=O)O)ccc3n2CC)sc2cc(S(=O)(=O)O)ccc21; pH 7, 37 °C, NaCl 150 mM, together with: O2 cosubstrate): 1.9 ± 0.2 s⁻¹
B8 (enzyme D25A) — kcat (N[C@H](COP(=O)(O)O)Cc1c[nH]cn1; pH 7.8, 25 °C): 0.029 ± 0.001 s⁻¹
ALDH7A1 (Homo sapiens, UniProt P49419) — kcat (N[C@@H](CCCC=O)C(=O)O; pH 8, apparent, together with: NAD+ 2.5 mM): 0.27 ± 0.02 s⁻¹
B9 (PYCR2 R119C) — kcat (O=C(O)[C@@H]1CCC=N1; pH 7.5, 37 °C, apparent, together with: NADH 500 µM): 0.08 ± 0.01 s⁻¹
B10 (enzyme W53Y) — kcat (OC[C@H]1O[C@H](O[C@H]2O[C@H](CO)[C@@H](O)[C@H](O)[C@H]2O)[C@H](O)[C@@H](O)[C@@H]1O; pH 3.7, 30 °C): 7.6 ± 0.1 s⁻¹
B11 — kcat (N[C@@H](Cc1ccccc1)C(=O)O; pH 7.5, 25 °C, together with: PMP 20 µM): 0.24 s⁻¹
enzyme (UniProt A0A1H9C520) — kcat (OC[C@@H](O)[C@@H](O)[C@H](O)[C@@H](O)CO; pH 8, 37 °C): 4.76 s⁻¹

Some of these lines once more:
ALDH7A1 (Homo sapiens, UniProt P49419) — kcat (N[C@@H](CCCC=O)C(=O)O; pH 8, apparent, together with: NAD+ 2.5 mM): 0.27 ± 0.02 s⁻¹
